Results collected from several papers.
A part holds a random share of what one study measured.

Block 1 — method: universal PBM; form: double-stranded DNA, one strand shown; medium: in vitro; concentration: 600 nM; direction: higher = stronger binding
Target: Sal-like protein 4, full length isoform A (SALL4, Homo sapiens, UniProt Q9UJQ4, residues 1-1053)
UniProt Q9UJQ4, sequence (whole entry, looked up): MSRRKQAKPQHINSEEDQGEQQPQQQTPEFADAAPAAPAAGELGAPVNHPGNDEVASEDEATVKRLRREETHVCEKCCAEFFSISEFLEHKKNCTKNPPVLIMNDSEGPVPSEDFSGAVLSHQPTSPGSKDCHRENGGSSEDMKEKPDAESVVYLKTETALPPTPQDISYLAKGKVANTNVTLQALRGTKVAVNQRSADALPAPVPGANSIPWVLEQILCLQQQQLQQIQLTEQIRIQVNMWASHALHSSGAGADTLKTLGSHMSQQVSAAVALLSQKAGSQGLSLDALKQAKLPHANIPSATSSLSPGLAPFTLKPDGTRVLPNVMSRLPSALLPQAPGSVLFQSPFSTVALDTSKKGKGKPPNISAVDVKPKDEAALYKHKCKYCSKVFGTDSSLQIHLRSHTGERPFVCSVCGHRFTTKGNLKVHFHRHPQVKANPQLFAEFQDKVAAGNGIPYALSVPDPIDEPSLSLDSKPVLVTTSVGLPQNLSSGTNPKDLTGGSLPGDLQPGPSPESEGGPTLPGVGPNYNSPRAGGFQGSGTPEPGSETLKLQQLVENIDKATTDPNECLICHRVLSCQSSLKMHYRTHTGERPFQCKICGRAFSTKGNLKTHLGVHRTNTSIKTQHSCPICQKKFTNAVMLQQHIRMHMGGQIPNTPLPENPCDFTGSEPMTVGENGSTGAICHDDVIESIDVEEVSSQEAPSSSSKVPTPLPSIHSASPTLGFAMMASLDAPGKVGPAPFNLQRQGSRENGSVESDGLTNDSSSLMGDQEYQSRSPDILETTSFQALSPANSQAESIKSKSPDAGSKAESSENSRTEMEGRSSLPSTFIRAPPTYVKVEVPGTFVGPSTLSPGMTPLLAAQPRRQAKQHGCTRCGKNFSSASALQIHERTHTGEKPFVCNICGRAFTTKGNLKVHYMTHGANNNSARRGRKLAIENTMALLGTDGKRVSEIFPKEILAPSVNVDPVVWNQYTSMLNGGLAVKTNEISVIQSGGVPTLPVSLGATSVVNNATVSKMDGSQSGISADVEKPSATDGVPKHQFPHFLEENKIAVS
Notes: 8-mer, flanks averaged, mean of replicates
Oligonucleotide | E-score
AACCTATC | -0.00211
ATCCACGC | -0.144
AGCGCGCC | -0.34
ACTGCATA | 0.156
ACCCCGCT | -0.274
ATTTTTTA | 0.409
ATTTTCAG | 0.252
ATCTCCGG | -0.0165
CGGTGTTC | -0.164

Block 2 — method: protein-binding microarray; form: double-stranded DNA, one strand shown; medium: in vitro; concentration: 2540 nM top; notes: 60-bp whole probe; together with: salmon DNA 0.4 mg/ml; baseline: random background probes; direction: higher = stronger binding; all sequences stand within: GCCTAGCAC … GTCTTGATTCGCTTGACGCTGCTG
Target: Interferon regulatory factor 3, full length, phosphomimetic (IRF3, Homo sapiens, UniProt Q14653, residues 1-427, S386D/S396D/S398D/S402D/T404D/S405D)
Construct (chain): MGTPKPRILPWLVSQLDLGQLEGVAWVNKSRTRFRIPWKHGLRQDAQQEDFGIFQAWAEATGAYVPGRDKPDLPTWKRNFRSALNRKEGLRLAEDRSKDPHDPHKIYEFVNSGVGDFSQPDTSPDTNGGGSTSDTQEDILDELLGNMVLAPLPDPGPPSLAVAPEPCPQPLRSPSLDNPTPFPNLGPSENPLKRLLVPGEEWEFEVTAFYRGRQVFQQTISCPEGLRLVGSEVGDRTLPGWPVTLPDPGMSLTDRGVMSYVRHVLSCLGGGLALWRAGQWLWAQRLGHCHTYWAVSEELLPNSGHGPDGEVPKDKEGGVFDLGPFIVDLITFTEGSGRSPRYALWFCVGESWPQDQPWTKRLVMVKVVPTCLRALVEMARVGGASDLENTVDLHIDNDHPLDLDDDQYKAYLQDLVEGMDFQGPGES
Oligonucleotide | fitted relative affinity [z-score]
GACGGACTGGGGGTTCGGGACGTGCTA | -0.594
TTAGGACTGGGTACTGGGTTAGTGCTA | -0.815
TTAGGTAACGACTATCGGTTAGTGCTA | 0.156
TTAGGTTTTGGTCTCGGTTAGTGCTAG | 3.05
GACGGACTGGGGATCGGGACGTGCTAG | -0.515
GACCGTTCCGGTTTCGGGACGTGCTAG | 5.71
TTAGGTCTCGGTATCGGTTTGTGCTAG | 3.93
GACGAACTGGGGTATCGAGCCGTGCTA | -0.591

Block 3 — method: protein binding microarray; form: double-stranded DNA, one strand shown; medium: in vitro; concentration: not given; baseline: not given; direction: higher = stronger binding
Target: Histone acetyltransferase KAT6A, winged helix 2, GST fusion (KAT6A, Homo sapiens, UniProt Q92794, residues 85-181)
Notes: 8-mer, flanks averaged, mean of 2 arrays, mostly near background
Target sequence (chain): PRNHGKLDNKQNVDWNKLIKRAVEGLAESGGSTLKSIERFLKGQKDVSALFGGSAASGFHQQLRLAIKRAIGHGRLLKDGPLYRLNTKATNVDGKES
Oligonucleotide | E-score
CTGCCTCA | -0.054
GTGCACCA | -0.0189
TGCCACAA | 0.139
AGAGACGG | 0.0347
AACCTGCG | 0.0308
AAGCTAGA | 0.0136
CAGACGTC | -0.149
CTAGCTCA | -0.00012
ACACTCGA | 0.101

Single results of other studies
Molecule | target | assay | system | setting | scale | quantity | value
PhoQ, residues 284 288 289 292 302 303 SVTLVV | PhoP, residues 12 14 15 18 19 AYFRS (Escherichia coli, UniProt P23836) | Sort-seq, measured: YFP reporter | E. coli | PhoQ-PhoP variant library, together with: 10 µM Mg2+ | baseline: high Mg2+ state, higher = stronger signaling | fold induction | 6.75

Repeated from above (block 1):
Oligonucleotide | E-score
ATTTTTTA | 0.409
ATTTTCAG | 0.252
ATCTCCGG | -0.0165
